Measured values of several laboratories.
A part holds a random share of what one study measured.

Study 1
Target: Fragile X messenger ribonucleoprotein 1, C-terminal low-complexity region (Fmr1, Mus musculus, UniProt P35922)
Method: RNA Bind-n-Seq
Molecule type: RNA
Medium: in vitro
Concentration: 200 nM
Notes: whole 134-nt RNA, ends assumed
With: 150 mM LiCl
Baseline: input library
Direction: higher = stronger binding
All molecules: 7-deaza-guanosine replaces G
All sequences stand within: GGGAGUUCUACAGUCCGACGAUC … UGGAAUUCUCGGGUGUCAAGG
Strand | log2 enrichment
UAACUUUAGAGGAGGAUCUGAUGAAUAUGGCAGUGGACGUGGAUUUGGGGAUGGCUAUAAUGGGUAUGGAGGAGGACCUGGAGGUGGCAA | -0.0263
AGUCCUGUGCUACACAUCGUAUGUACCGAAUCGGGAAAAAGGAAAAAGGAAAAAGGGAAAGUAUUAUGUUACGCCGUUCGGAUCUGCACU | -1.56
ACCAUGCAGGUGGGCAUCUUUGGGAAGUGGGGCAAGGGGGGGAUAGGGAGGGGGGCAACACUUUGGGAACAGGUGGUCCCAGGUCGUUUC | 1.22
GCAGGAAGUAAAAACAAAUGGAAAUGCUUCGGAUAGUGGCAGGGGUGGGGGUUGCUAAGGAAAGGGUGAAAUGGGAGUGGGUAAAGAGUU | 1.63
GCAUAAUGGAUAUUUUUUAACUUGGCGAGAUGUGUCUCUCAAUCCUGUGGCUUUGGUGAGAGAGUGUGCAGAGAGCAAUGAUAGCAAAUA | 0.636
UCAAGUCCUGUGCUACACAUCGUAUGUACCGAAUCGGUGGAAAAAGGAAAAAGGAAAGUAUUAUGUUACGCCGUUCGGAUCUGCACUUCC | -1.13
UCAAGUCCUGUGCUACACAUCGUAUGUACCGAAUCGGGAAGGGGAAGGGGAAGGAAAGUAUUAUGUUACGCCGUUCGGAUCUGCACUUCC | -1.38
UGGCCCUGGUGGCAUGCGGGGAGGAAGAGGUGGCCUCAUGGAUCGUGGUGGUCCCGGUGGAAUGUUUAGAGGUGGCCGUGGUGGAGACAG | -0.0245

Study 2
Target: Sal-like protein 4, full length isoform B (SALL4, Homo sapiens, UniProt Q9UJQ4-2, residues 1-616)
Method: universal PBM
Molecule type: double-stranded DNA, one strand shown
Medium: in vitro
Concentration: not given
Notes: 8-mer, flanks averaged, mean of replicates
Direction: higher = stronger binding
Strand | E-score
CGATGAGC | -0.228
AACCCTTA | 0.214
GCTGAAAA | -0.00417
CACTTCCG | -0.127
GCCAAACC | -0.17
AGTTAATG | 0.326
GAGACCTC | -0.169
AACTATAG | 0.197
AAGGCCCG | -0.379
AGTCCGCC | -0.208
CCGTCCGA | -0.273
CAATGGGG | -0.163
CCCGGTAC | -0.243
AGCGCAGG | -0.374
TAACGGAA | -0.025
CCGCCTGA | -0.385
GTTAGCGA | 0.125
ATCCGCCG | -0.227
CCATAGCG | 0.0152
CTGAACGA | -0.123
ACCGGCTG | -0.406
AAGGCTGA | -0.0404
AACGTTAT | 0.273
CAGTCTCC | -0.187
GGCGCACC | -0.387

Study 3
Target: RNA binding protein fox-1 homolog 2, RRM domain, GST-SBP tag (RBFOX2, Homo sapiens, UniProt O43251-10, residues 100-194)
Method: RNA Bind-n-Seq
Molecule type: RNA
Medium: in vitro
Concentration: 365 nM
Notes: natural RNA segment, single round, ends assumed
Baseline: no-protein control
Direction: higher = stronger binding
All sequences stand within: GGGAGUUCUACAGUCCGACGAUC … UGGAAUUCUCGGGUGCCAA
Construct (chain): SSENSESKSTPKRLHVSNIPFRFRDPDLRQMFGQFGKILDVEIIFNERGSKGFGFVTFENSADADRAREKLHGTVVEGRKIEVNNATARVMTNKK
Strand | RBNS enrichment (R)
GAUAACUUGGGAUUUCUUGAUAGUCCUUCACCCCUGAAACCCCGUAUUUACUUAACAAGAUUUAGCUCUUAGUUCUUCAAGUAAAAUUAAAGUCUCUUGUGUAAGAGCCA | 0.428
AAUGGCAGCAACAAUUUUGCCAUUUCUAUUGACUUUCACAUAGGCGCCCCCAAACACACACAACAACAGAGGUUACCCUGUUCUGUCUACUCUACAGUGACUACCUGUGG | 0.308
UUAACUCUUCAGUAGAGGUUUACAAAGAGUACAAAGGUUAAAUUACAAAUUCAUUCCCAGCCUAGGCUCUGGGCACAUUUCCUGUUCUUGAAUUCUGCUCCUGAAGAGGG | 0.471
AUGUGUAGCUCUAUGUCAAAUAGAGGGGGAAUGGAGGACCCCCUCCUUCCUGCCUCAUGGCUGUUCUUGAAACAGCUUAGAGCGAUUCUAUGAAAAAAUGUAAUAAAAAA | 0.439
GGUCCCAAAUGGGGGCCCCAUUUCACCUGUAUCAGGACUCUGAGCAUCCCCAGCUGCCCCACAUCUUGCCUCUGGCCCUCAGAGAGGGGUGUUUCUGUGGGUACUCCUCU | 0.38
GCUUUUCUUUGAGUCCAUCCCCCCAAAGUCAGCCUUUACUAGUAGAGGAACAAGACCUGAGCGCUGUCCCUGGGGAACCUCACUAGUCAUUCCUUUCCCUUGAUGGGGCU | 0.51
GUCUGGACUUAGCUUCAAACUCUAUGGAUUCGGCCUUGGUAGGGAAUUGUACCACCACUUGGUUUGGACUACAAAUUAAACAUUGGCCCUCGCGGAGCUUGAGUUCUUCA | 0.477
UUUAUAUGGAAAUGUGUCUUGAUAAUAUUACCUAUUAAAUGUGUAUUUAUAGUCCCUCCUAUCAAACAAUUACAGAGCACAAUGAUUGUCAUUGGGUAUAUAUGUAUUUA | 0.614

Study 4
Target: Histone acetyltransferase KAT6A, winged helix 2, GST fusion (KAT6A, Homo sapiens, UniProt Q92794, residues 85-181)
Method: protein binding microarray
Molecule type: double-stranded DNA, one strand shown
Medium: in vitro
Concentration: not given
Notes: 8-mer, flanks averaged, mean of 2 arrays, mostly near background
Baseline: not given
Direction: higher = stronger binding
Target sequence (chain): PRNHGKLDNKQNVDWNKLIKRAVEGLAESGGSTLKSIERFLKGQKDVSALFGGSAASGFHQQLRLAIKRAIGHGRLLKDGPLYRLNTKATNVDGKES
Strand | E-score
ACTCACAG | 0.0471
TACCGCCA | 0.0768
GTATGCCA | -0.0685
CACACCAC | -0.0207
AACTAGTA | -0.229
GACTCTAA | -0.255
TCTAGTAA | -0.122
CATCTGAC | -0.162
ATCGGCGG | 0.149
GACCCCAA | -0.107
CCCCGTGC | 0.148
GTAGCAGA | 0.109
ACGAAATG | 0.0696
AGCTAGAG | -0.0396
CGGAAAGC | 0.172
AATTCCCT | -0.0861
GGTTATGA | -0.0919
CGAGAGAG | 0.0298

Study 5
Target: Transcription factor Sp1 (SP1, Homo sapiens, UniProt P08047, residues 1-785, full length assumed)
Sequence of UniProt P08047 (whole entry, looked up): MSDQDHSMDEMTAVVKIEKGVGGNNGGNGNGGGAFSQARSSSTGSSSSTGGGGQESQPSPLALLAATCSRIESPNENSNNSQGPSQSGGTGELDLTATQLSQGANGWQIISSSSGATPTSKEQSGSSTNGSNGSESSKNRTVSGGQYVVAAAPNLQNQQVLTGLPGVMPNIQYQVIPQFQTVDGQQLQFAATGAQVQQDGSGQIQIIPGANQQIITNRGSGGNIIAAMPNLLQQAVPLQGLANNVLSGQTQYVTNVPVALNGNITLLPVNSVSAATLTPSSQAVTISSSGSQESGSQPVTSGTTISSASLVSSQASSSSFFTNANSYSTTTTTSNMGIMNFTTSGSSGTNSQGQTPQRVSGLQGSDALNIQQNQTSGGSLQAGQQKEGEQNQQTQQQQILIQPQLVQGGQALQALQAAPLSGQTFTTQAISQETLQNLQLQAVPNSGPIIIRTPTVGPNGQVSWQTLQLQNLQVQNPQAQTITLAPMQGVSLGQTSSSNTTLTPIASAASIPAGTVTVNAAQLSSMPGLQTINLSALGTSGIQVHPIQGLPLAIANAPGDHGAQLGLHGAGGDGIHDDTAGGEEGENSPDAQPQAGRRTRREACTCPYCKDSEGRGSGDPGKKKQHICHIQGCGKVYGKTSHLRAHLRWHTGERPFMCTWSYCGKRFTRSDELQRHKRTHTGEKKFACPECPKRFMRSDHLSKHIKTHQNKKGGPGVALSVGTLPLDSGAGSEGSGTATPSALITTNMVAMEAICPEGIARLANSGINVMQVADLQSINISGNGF
Method: protein-binding microarray
Molecule type: double-stranded DNA, one strand shown
Medium: in vitro
Concentration: not given
Notes: k-mer, scored over probes, only values ≥0.25
Direction: higher = stronger binding
Strand | E-score
AATTTCCC | 0.284
AATAAGTA | 0.28
GGTGGGGA | 0.471
ACTCCCCC | 0.277
ATGTGTTA | 0.276
GAGGGGCC | 0.297
ACAATATG | 0.267
GCCCCAAC | 0.344
AACCTCCC | 0.269
GGGGAAAA | 0.264
CCCGCCGC | 0.265
ATGTAGTA | 0.305
AATGGGCG | 0.257
ATTAGGGG | 0.309
CCCCCATA | 0.256
AACAGGGG | 0.302
AGTACTAC | 0.253
ACATACAT | 0.287
CATTGTAC | 0.288
GCATTATA | 0.282
AAGGAGGG | 0.279
AGGGGTGG | 0.449
AAACGCCC | 0.264
ACACATAA | 0.258

Repeated from above (study 2):
Strand | E-score
GTTAGCGA | 0.125
CCGCCTGA | -0.385
GCTGAAAA | -0.00417
AGTCCGCC | -0.208
ACCGGCTG | -0.406
AGCGCAGG | -0.374
